# Experimental data from different studies.
# Several values in a cell are separate wells, animals, samples, runs or records. Numbers after ± are the reported error.
# Sequence of UniProt Q9UH17 (whole entry, looked up): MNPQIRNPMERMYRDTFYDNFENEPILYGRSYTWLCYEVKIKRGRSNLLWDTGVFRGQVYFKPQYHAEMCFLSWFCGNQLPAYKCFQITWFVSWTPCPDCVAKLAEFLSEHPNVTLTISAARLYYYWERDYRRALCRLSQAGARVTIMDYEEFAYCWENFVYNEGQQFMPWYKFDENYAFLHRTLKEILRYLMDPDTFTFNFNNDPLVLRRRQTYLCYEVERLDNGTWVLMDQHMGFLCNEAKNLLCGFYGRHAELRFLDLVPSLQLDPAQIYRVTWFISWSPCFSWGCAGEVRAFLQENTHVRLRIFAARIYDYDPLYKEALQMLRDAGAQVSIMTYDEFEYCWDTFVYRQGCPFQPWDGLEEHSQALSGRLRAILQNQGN
# Sequence of UniProt P23975 (whole entry, looked up): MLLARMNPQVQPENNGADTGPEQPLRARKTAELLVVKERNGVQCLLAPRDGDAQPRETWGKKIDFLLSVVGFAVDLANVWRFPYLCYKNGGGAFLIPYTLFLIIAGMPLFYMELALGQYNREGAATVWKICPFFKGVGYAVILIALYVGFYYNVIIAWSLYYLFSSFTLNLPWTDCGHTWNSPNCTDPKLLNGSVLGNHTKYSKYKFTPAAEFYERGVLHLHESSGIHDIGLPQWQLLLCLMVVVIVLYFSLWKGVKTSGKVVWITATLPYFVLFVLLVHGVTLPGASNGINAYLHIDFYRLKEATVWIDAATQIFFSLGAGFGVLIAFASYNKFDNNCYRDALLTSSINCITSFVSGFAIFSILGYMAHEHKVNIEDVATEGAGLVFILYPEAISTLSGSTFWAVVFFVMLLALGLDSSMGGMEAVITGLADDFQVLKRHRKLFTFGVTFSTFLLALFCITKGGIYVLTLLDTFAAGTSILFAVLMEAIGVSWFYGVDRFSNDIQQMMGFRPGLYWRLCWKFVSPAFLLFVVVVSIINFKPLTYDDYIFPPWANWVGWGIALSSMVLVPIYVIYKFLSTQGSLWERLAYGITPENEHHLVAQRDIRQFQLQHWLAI
# Sequence of UniProt P08922 (whole entry, looked up): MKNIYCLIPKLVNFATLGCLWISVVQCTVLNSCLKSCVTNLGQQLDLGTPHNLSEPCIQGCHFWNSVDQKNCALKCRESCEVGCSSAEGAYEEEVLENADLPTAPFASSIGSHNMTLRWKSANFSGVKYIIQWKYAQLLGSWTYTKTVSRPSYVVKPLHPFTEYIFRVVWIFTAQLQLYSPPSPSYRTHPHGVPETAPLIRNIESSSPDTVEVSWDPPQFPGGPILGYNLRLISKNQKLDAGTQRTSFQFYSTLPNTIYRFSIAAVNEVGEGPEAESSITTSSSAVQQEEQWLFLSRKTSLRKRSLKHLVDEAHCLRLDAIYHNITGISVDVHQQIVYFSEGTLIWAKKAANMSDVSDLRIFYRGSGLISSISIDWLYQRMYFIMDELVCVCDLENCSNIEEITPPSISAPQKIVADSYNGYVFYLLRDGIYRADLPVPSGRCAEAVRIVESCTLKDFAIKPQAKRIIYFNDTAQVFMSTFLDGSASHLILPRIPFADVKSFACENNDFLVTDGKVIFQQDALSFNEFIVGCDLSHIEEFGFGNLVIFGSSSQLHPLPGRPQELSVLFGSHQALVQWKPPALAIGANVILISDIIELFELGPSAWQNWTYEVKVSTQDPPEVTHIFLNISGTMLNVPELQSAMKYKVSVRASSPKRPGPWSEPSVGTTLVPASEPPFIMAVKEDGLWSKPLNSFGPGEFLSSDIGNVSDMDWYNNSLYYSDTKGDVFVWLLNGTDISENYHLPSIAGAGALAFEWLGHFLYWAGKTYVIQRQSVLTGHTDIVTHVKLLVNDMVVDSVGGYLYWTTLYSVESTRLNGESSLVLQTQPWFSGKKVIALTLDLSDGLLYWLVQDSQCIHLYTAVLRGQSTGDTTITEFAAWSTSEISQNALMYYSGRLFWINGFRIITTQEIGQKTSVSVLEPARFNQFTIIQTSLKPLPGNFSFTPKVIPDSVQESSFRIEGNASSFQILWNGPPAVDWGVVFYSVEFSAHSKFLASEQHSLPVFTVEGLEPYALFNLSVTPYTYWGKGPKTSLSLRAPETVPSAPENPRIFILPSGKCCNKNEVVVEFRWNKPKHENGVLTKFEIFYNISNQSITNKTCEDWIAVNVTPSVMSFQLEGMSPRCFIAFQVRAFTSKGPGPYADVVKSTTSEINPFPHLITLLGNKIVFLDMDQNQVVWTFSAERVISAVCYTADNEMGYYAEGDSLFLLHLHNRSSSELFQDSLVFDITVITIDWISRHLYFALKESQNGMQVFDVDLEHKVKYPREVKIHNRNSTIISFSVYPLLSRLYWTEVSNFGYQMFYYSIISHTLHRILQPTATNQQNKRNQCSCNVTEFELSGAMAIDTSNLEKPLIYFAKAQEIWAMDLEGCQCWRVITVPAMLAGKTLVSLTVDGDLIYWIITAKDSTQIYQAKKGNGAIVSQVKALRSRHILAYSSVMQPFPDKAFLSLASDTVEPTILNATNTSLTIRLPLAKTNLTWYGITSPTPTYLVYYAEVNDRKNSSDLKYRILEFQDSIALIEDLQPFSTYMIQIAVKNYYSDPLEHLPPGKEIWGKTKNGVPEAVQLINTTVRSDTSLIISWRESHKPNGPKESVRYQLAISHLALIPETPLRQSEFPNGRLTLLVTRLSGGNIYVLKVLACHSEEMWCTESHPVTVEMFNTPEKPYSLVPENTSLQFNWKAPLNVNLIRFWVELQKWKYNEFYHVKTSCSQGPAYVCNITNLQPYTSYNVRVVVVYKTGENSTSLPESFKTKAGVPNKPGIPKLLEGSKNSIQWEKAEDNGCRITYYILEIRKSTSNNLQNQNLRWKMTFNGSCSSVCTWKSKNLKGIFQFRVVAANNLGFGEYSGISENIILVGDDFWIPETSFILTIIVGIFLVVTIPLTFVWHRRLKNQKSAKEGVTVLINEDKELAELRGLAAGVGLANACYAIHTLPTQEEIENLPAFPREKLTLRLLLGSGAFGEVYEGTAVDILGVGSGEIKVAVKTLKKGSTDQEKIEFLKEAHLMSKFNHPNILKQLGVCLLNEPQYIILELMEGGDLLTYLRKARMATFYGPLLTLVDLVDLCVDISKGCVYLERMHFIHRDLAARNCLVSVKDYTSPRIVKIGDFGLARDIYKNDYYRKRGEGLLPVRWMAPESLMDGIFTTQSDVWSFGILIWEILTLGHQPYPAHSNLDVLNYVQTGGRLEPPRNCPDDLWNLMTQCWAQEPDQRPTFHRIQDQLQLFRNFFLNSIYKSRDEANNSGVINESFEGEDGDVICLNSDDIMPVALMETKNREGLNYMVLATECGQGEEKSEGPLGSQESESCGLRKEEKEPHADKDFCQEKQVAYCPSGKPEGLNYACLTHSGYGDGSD
# Sequence of UniProt Q8R146 (whole entry, looked up): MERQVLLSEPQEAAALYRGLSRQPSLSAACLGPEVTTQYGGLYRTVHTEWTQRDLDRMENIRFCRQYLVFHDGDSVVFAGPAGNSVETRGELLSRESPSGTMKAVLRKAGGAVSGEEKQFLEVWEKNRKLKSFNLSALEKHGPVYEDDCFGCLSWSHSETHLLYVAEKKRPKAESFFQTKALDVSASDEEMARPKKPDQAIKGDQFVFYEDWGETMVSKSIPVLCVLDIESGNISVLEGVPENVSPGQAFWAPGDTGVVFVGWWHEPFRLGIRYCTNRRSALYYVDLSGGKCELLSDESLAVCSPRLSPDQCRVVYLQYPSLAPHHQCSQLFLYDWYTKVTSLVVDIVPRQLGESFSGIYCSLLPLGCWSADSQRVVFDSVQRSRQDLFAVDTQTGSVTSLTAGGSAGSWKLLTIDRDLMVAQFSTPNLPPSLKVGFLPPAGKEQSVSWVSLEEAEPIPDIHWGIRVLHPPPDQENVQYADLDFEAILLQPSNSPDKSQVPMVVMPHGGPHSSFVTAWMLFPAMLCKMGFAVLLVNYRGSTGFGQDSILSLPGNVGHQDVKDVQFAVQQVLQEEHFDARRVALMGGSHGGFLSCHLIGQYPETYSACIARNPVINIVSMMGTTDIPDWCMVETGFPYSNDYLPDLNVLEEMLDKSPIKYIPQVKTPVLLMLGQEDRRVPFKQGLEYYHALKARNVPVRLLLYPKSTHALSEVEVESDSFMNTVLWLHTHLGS
# Sequence of UniProt P51956 (whole entry, looked up): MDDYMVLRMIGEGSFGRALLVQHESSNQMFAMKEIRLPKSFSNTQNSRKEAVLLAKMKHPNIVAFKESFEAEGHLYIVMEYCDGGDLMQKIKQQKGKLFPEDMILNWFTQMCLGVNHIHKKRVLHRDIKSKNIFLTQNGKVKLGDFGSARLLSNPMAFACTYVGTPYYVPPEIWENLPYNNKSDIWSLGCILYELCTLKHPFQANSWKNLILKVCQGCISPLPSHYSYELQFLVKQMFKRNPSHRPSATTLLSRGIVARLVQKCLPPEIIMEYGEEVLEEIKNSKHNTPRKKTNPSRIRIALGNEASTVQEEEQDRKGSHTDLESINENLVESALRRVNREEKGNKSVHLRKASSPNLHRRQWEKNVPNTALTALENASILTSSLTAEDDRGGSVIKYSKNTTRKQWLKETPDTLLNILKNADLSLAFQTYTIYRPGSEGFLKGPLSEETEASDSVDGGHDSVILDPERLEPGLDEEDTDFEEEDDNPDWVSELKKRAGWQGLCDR
# Sequence of UniProt Q6PHR2 (whole entry, looked up): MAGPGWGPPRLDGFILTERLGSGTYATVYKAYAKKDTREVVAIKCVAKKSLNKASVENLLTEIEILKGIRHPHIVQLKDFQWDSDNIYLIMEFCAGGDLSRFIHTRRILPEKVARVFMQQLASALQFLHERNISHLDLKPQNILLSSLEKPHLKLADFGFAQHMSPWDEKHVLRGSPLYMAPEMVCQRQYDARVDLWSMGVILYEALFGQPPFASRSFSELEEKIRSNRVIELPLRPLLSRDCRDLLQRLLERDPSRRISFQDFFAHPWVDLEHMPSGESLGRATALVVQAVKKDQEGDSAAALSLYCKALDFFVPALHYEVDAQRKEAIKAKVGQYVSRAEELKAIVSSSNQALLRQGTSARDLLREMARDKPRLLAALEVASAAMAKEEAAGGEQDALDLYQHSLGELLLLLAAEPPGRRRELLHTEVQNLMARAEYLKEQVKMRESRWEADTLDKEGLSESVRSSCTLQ
Compound,target or system,assay,test system,conditions,scale,endpoint,result
CCc1cccc2c(C(=O)NC3CCN(C(=O)C(C)C)CC3)c[nH]c12,"Genome polyprotein, 3C protease (rhinovirus B14, UniProt P03303)","protease activity, SAMDI-MS",,,,Hill slope,0.965
COCC1CCCCN1C(=O)n1cc(C(O)(c2ccccc2)c2ccccc2)nn1 (stereo not drawn),"Acylamino-acid-releasing enzyme (Apeh, Mus musculus, UniProt Q8R146)","probe labelling, inhibitor, competitive ABPP-SILAC",mouse T cells,"concentration not given, 4 h, protein level","baseline: treated over DMSO cells, lower = stronger inhibition",SILAC activity ratio,1.42
O=C1NC2(CC2)COc2ncc(F)cc2[C@H]2COCCN2c2ccn3ncc1c3n2,,,"Sprague-Dawley rat, male, thymus","oral, 5 mg/kg/day, 4 weeks dosing, end of recovery",,organ-to-brain weight ratio,21.8 ± 6.2%
CCc1nnc(-c2c(OC)cc(-c3cnc4cc(-c5cnn(C)c5)ccn34)cc2OC)o1,"ADRB2 (Homo sapiens, UniProt P07550)","antagonist, radioligand binding",,10 µM,baseline: control,specific binding,100%
CC(C)(C)C(=O)OCOP(=O)(OCOC(=O)C(C)(C)C)C1CCCN(O)C1=O (stereo not drawn),NCI/ADR-RES,,,,,CC50,> 100 µM
C[n+]1cn([C@@H]2O[C@H](COP(=O)([S-])OP(=O)(O)OP(=O)(O)OP(=O)([S-])OC[C@H]3O[C@@H](n4c[n+](C)c5c(O)nc(N)nc54)[C@H](O)[C@@H]3O)[C@@H](O)[C@H]2O)c2nc(N)nc(O)c21 (stereo partly drawn),"mRNA decapping complex subunit 2 (dcp2, Schizosaccharomyces pombe, UniProt O13828)",single-turnover kinetics,29-nt native-capped RNA substrate,0.5 mM,,kmax,0.15 ± 0.01 min⁻¹
Cc1cnc(Nc2ccc(C3CCN(C)CC3)c(F)c2)nc1Nc1ccc(Cl)c(NS(=O)(=O)C(C)(C)C)c1,"ULK3 (Homo sapiens, UniProt Q6PHR2)",,,,baseline: ULK3 IC50 over BRD4 IC50,selectivity ratio,66 fold
C=CC(=O)Nc1cc(-c2ccc(C(=O)N3CCCC(O)(CC)C3)cc2)ccc1F (stereo not drawn),"DNA dC->dU-editing enzyme APOBEC-3B, C-terminal domain (Homo sapiens, UniProt Q9UH17)","covalent adduct, intact protein MS, measured: mass +397 Da adduct of 25735 Da",,"500 µM, 3 h, 20-fold molar excess",,adducted protein,78% and 73%
CN(C)[C@H]1C[C@@]23CC[C@@]4(O2)C(=CC[C@]2(C)[C@@H](c5ccc6ccncc6c5)CC[C@H]24)C=C3[C@@H](O)[C@@H]1O,"NEK3 (Homo sapiens, UniProt P51956)","ATP probe labelling, inhibitor, KiNativ profiling",,1 µM,,inhibition,3.3%
Cc1cc(C(=O)Nc2nc3cccc(C)c3n2[C@H]2CCCCN(C(=O)/C=C/CN(C)C)C2)ccn1,Trypanosoma brucei brucei,,2T1 parental,"10 x EC50, 24 h",baseline: time 0 h,cell growth,66.7% and 73.3% and 80%
CS(C)(=O)=Nc1ccc(-c2ccc(-c3nc4cc(O[C@@H]5CO[C@H]6[C@@H]5OC[C@H]6O)[nH]c4cc3F)cc2)cc1,"RET (Homo sapiens, UniProt P07949, V804L)","enzyme activity, inhibitor",,10 µM,,inhibition,-22%
COc1ccccc1-c1n[nH]c2nc(N[C@H]3CC[C@H](NS(=O)(=O)CC(C)C)CC3)ncc12,,"bead binding, competition bead pull-down, measured: LINJ.28.3060",Leishmania donovani extract,10 µM,baseline: vehicle,relative abundance,0.75
O=C1NC(=O)c2c1c1cc(F)c[n+]3c1c1c2c2cc(O)ccc2[n]1[Ru-4]312([N]=C=S)[S+]3CC[S+]1CC[S+]2CC3 (stereo not drawn),"ROS1 (Homo sapiens, UniProt P08922)",enzyme activity,,"100 nM, human enzyme, added: 10 µM ATP",baseline: untreated,remaining activity,112%
CCCO[C@H]1[C@H](O)[C@@H](N)[C@@H](O[C@H]2[C@H](O[C@@H]3O[C@H](CO)[C@@H](O[C@H]4O[C@@H](CN)[C@@H](O)[C@H](O)[C@H]4N)[C@H]3O)[C@@H](O)[C@H](N)C[C@@H]2N)O[C@@H]1CO,"SLC6A2 (Homo sapiens, UniProt P23975)",radioligand binding,,"10 µM, 1% DMSO",,specific binding,8%
COc1ccccc1-c1n[nH]c2nc(NC3CCN(C(=O)Cc4ccc(F)cc4F)CC3)ncc12,,"bead binding, competition bead pull-down, measured: LMJF.04.1230",Leishmania donovani axenic amastigote extract,10 µM,baseline: vehicle,relative abundance,1.09
CC(C)[C@H]1NC(=O)C[C@H]2/C=C/CCSSC[C@@H](NC1=O)C(=O)N[C@H](Cc1cccc3ccccc13)C(=O)NCC(=O)O2,"MAPKAPK2 (Homo sapiens, UniProt P49137)","enzyme activity, inhibitor",,10 µM,,inhibition,5.2%
Cc1ccc(N2CCN(C)CC2)cc1C(=O)N[C@H](C)c1cc(-c2cnn(C)c2)nc2ccccc12,African green monkey cells,,,15.62 µM,,viability,95.4%
Cc1cccc(/N=N/c2cccc([B-](F)(F)F)c2)c1.[K+],"Chymotrypsinogen A (Bos taurus, UniProt P00766)","enzyme activity, inhibitor",,added: Suc-AAPF-AMC,baseline: Ki cis over Ki trans,switching factor,1.3 ± 0.2

# A few entries again:
Compound,target or system,assay,test system,conditions,scale,endpoint,result
COc1ccccc1-c1n[nH]c2nc(N[C@H]3CC[C@H](NS(=O)(=O)CC(C)C)CC3)ncc12,,"bead binding, competition bead pull-down, measured: LINJ.28.3060",Leishmania donovani extract,10 µM,baseline: vehicle,relative abundance,0.75
O=C1NC(=O)c2c1c1cc(F)c[n+]3c1c1c2c2cc(O)ccc2[n]1[Ru-4]312([N]=C=S)[S+]3CC[S+]1CC[S+]2CC3 (stereo not drawn),"ROS1 (Homo sapiens, UniProt P08922)",enzyme activity,,"100 nM, human enzyme, added: 10 µM ATP",baseline: untreated,remaining activity,112%
